Published values gathered from unrelated publications.
Protocols differ between the studies behind these lines.
CTSL: Procathepsin L (CTSL, Homo sapiens, UniProt P07711)
Chain of UniProt P07711 (whole entry, looked up): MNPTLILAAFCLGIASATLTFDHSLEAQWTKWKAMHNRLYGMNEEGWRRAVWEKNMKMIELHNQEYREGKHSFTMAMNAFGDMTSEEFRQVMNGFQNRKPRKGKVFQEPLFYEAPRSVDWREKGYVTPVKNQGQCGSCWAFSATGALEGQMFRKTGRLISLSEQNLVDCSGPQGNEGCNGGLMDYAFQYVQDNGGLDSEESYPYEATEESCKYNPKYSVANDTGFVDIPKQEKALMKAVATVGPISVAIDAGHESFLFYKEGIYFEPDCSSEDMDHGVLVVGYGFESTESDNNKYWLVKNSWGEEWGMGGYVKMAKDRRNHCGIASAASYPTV
Chain of UniProt Q70EK9 (whole entry, looked up): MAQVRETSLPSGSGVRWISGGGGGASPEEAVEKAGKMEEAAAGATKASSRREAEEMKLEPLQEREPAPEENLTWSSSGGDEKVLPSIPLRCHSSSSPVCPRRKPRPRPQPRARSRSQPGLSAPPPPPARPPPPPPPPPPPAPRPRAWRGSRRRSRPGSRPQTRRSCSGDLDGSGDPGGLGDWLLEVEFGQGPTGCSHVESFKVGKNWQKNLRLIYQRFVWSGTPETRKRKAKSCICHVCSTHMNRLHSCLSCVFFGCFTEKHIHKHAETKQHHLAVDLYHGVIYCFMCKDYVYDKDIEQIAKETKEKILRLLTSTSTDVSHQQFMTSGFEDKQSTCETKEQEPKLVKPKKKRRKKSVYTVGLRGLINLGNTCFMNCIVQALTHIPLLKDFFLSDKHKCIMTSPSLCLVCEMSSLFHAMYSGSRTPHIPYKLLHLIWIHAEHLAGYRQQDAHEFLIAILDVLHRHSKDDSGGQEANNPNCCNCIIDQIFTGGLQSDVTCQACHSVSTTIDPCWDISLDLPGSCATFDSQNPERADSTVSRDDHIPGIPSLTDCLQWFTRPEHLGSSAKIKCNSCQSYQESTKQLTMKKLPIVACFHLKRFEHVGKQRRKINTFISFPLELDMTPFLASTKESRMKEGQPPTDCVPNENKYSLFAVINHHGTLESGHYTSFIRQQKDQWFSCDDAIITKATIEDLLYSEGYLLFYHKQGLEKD
Chain of UniProt O95819 (whole entry, looked up): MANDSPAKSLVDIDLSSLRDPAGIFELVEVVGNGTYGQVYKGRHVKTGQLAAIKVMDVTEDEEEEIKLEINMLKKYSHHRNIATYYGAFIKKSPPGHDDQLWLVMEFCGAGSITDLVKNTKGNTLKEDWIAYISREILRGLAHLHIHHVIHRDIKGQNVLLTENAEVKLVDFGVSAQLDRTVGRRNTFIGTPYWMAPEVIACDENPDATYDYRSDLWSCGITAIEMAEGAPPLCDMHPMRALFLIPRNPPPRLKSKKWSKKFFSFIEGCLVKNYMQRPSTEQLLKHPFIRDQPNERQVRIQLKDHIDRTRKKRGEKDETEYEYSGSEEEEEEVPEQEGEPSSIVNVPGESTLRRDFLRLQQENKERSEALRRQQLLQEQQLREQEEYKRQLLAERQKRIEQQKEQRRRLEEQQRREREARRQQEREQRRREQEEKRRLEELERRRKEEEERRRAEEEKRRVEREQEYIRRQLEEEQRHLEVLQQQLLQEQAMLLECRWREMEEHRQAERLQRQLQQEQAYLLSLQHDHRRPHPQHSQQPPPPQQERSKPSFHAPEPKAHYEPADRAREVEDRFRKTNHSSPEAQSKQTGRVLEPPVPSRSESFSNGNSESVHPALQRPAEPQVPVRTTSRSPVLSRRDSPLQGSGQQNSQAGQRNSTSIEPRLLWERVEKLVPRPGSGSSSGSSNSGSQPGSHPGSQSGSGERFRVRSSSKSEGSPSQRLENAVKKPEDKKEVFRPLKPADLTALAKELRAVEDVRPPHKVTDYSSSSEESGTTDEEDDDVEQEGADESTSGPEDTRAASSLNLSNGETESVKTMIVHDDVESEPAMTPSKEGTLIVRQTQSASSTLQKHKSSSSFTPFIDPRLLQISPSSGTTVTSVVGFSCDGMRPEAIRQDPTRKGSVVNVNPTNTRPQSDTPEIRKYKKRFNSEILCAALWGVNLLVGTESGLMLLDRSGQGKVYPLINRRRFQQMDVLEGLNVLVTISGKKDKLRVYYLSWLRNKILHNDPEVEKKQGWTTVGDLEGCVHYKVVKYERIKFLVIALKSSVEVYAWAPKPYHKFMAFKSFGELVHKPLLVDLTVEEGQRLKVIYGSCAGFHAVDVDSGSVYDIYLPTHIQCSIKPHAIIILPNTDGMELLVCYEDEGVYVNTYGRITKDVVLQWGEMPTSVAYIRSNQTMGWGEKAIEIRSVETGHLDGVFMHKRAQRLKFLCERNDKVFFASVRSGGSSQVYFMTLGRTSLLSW
Chain of UniProt P57078 (whole entry, looked up): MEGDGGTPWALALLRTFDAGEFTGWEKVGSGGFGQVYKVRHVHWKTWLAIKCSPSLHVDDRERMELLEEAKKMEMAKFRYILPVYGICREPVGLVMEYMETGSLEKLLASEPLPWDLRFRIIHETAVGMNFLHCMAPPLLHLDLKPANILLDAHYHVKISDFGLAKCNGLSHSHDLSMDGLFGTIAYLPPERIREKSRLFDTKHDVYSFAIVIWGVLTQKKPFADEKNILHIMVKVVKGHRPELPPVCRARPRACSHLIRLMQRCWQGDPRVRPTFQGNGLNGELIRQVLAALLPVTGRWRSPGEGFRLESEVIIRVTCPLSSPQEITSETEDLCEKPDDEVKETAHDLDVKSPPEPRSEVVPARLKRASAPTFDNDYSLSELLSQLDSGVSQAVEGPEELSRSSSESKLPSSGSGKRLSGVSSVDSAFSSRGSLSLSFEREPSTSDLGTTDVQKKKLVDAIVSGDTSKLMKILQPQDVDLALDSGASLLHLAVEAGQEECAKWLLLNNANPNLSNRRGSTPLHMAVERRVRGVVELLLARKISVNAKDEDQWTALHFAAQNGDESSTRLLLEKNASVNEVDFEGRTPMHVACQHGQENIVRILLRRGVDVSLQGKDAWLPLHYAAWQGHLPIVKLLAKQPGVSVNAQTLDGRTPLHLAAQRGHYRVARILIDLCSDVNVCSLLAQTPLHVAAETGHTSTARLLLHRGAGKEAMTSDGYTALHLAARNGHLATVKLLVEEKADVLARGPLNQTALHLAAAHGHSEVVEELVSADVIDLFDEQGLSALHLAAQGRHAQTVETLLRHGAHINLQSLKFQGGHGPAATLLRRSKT
Chain of UniProt P00519 (whole entry, unmodified, looked up): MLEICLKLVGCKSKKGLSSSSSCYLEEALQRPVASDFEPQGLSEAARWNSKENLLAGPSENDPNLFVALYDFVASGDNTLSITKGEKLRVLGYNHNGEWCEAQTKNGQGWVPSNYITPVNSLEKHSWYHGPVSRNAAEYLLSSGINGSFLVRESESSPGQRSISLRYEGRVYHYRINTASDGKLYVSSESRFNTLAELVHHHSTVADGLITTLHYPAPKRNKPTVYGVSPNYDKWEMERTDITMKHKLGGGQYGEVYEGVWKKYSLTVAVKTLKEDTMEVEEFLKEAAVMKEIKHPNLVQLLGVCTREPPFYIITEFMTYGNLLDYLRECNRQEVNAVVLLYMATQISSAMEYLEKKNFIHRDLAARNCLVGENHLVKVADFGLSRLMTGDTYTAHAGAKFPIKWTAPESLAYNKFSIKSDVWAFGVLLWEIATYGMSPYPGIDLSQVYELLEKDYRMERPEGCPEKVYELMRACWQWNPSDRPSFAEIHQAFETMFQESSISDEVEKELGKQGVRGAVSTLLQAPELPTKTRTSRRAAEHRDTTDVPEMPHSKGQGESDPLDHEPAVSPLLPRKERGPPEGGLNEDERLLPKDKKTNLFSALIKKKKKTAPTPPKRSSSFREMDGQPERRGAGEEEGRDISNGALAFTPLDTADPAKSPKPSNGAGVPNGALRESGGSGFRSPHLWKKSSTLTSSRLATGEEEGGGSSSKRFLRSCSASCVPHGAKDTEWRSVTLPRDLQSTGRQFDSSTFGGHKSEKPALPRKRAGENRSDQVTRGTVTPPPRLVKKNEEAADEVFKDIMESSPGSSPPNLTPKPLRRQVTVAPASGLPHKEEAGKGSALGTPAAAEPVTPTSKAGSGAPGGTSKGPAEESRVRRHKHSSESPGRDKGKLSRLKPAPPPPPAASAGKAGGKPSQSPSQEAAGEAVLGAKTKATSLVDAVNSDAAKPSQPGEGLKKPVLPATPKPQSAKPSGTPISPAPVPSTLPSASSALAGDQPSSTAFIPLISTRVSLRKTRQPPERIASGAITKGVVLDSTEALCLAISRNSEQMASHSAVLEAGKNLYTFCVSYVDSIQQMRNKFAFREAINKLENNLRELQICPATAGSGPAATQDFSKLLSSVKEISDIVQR
Chain of UniProt O75582 (whole entry, looked up): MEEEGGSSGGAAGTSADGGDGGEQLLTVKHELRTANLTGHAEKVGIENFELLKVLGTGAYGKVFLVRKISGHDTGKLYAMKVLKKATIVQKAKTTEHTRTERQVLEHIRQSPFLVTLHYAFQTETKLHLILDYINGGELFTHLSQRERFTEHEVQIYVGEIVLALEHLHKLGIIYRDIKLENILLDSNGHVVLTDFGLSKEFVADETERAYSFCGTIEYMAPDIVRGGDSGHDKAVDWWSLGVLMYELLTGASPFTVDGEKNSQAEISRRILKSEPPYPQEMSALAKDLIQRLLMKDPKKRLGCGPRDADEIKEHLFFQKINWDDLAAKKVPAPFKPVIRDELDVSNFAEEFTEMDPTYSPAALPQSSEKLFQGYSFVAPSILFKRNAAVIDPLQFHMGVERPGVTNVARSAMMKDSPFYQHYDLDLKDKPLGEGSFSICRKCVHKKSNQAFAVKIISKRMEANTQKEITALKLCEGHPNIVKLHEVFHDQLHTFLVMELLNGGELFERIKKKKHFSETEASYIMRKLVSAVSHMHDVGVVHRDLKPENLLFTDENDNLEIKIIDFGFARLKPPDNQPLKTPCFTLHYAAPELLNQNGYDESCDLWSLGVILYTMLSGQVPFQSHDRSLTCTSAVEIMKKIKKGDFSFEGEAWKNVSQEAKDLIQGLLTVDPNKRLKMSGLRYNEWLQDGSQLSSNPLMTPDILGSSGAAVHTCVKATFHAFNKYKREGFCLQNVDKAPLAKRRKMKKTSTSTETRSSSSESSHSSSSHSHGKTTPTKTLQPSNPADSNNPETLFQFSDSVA

Compound | tested on | test | conditions | measurement | result
FC(F)(F)Oc1cccc(-c2cnc3ccc(-c4ccncc4)nn23)c1 | Ribosomal protein S6 kinase alpha-5, N-terminal kinase domain (RPS6KA5, Homo sapiens, UniProt O75582) | binding, competition with immobilised ligand | 5 µM | remaining binding | 97%
CCCCC(=O)Nc1ccc(-c2ccc3ncn(CCC)c(=O)c3c2)cn1 | CRK2 (Plasmodium falciparum, UniProt P61075) | binding, competition with immobilised ligand | 0.5 µM | remaining binding | 98%
Cc1cccc(N(O)N=Nc2ccc(S(=O)(=O)Nc3cc(C)on3)cc2)c1 | – | ABTS scavenging | 180 µg/mL | inhibition | 72.8%
CC[C@H](C)[C@H](NC(=O)[C@H](CCC(N)=O)NC(=O)[C@@H](NC(=O)[C@H](CCSC)NC(=O)[C@H](CCCCN)NC(=O)[C@H](CO)NC(=O)[C@@H](NC(=O)[C@H](CCSC)NC(=O)[C@H](CC(C)C)NC(=O)[C@H](CC(N)=O)NC(=O)[C@@H](NC(=O)[C@@H](NC(=O)[C@H](CO)NC(=O)[C@H](CC(C)C)NC(=O)[C@H](C)NC(=O)[C@H](CCCNC(=N)N)NC(=O)[C@H](CCC(=O)O)NC(=O)[C@H](Cc1ccc(O)cc1)NC(=O)[C@H](Cc1ccccc1)NC(=O)[C@H](C)NC(=O)[C@H](CC(N)=O)NC(=O)[C@@H](N)CCCCN)[C@@H](C)CC)[C@@H](C)CC)[C@@H](C)O)C(C)C)C(=O)N[C@@H](CC(N)=O)C(=O)N[C@H](C(=O)O)C(C)C | GSK3B (Homo sapiens, UniProt P49841) | enzyme activity, inhibitor, radiometric | 500 µM, 20 min | remaining activity | 140%
Cc1cc([C@@H](C)Nc2ccccc2C(=O)O)c2nc(N3CCC(F)(F)CC3)c(C#N)c(=O)n2c1 | MAPK11 (Homo sapiens, UniProt Q15759) | binding, competition with immobilised ligand | 10 µM | remaining binding | 100%
Cc1cc(O)c2c(c1)C(=O)c1cc(O)cc(O)c1C2=O | CTSL | enzyme activity, inhibitor | 100 µM | remaining activity | 33%
COc1cc(-c2cncc3c2CN(C)Cc2cc(N4CCNCC4)ccc2-3)cc(OC)c1OC | MAP4K4 (Homo sapiens, UniProt O95819) | enzyme activity, inhibitor | 1 µM | remaining activity | 75%
O=S(=O)(Nc1nccs1)c1ccc(N=NN(O)c2ccccc2)cc1 | – | ABTS scavenging | 180 µg/mL | inhibition | 74.8%
Nc1ccn([C@@H]2O[C@H](CO)[C@@H](O)C2(F)F)c(=O)n1 | MCF7 | cell growth or viability, MTT | 0.625 µg/mL, 24 h | viability | 80.8%
Cc1[nH]c(C)c(S(=O)(=O)Nc2cc(Cl)c(Cl)c(Cl)c2)c1C(=O)N1CCC(F)(F)C1 | DRD3 (Homo sapiens, UniProt P35462) | β-arrestin recruitment, agonist | 90 min | Emax | 95%
COC(=O)c1ccccc1O | USP51 (Homo sapiens, UniProt Q70EK9) | enzyme activity, inhibitor | 5 µM | inhibition | 14%
COc1cc(-c2cc(C(C)=O)n3ccccc23)c(OC)cc1CN1CCOCC1 | BRD9 (Homo sapiens, UniProt Q9H8M2) | thermal stability, DSF | 200 µM | ΔTm | 11 °C
C=CC(=O)N1CCC(COCC(=O)N2CCN(c3nc(-c4cnc(N)nc4C(F)F)nc(N4CCOC[C@@H]4C)n3)CC2)CC1 | KIT (Homo sapiens, UniProt P10721, A829P) | binding, competition with immobilised ligand | 1 µM | remaining binding | 63%
O=C1CC(c2ccc(O)cc2)Oc2cc(O)cc(O)c21 (centres unmarked) | CTSL | enzyme activity, inhibitor | 100 µM | remaining activity | 112%
CNc1ncc2c(/C=C/C(=O)N3CCC(OC)CC3)nn(Cc3cccc(C(F)(F)F)c3)c2n1 | RIPK4 (Homo sapiens, UniProt P57078) | enzyme activity, inhibitor, radiometric | 1 µM | remaining activity | 99%
Nc1ncnc2occ(-c3ccc(NC(=O)Nc4cc(C(F)(F)F)ccc4F)cc3)c12 | HUNK (Homo sapiens, UniProt P57058) | cell-free assay, inhibitor | 20 µM | remaining signal | 1.4%
CC[C@@H](C)[C@@H]1NC(=O)[C@H](Cc2ccc(O)cc2)NC(=O)[C@@H](N)CSSC[C@@H](C(=O)N2CCC[C@H]2C(=O)N[C@@H](CCCN=C(N)N)C(=O)NCC(N)=O)NC(=O)[C@H](CC(N)=O)NC(=O)[C@H](CCC(N)=O)NC1=O | CTSL | enzyme activity, inhibitor | 100 µM | remaining activity | 81.6%
C1=C/COCc2cc(ccc2OCCN2CCCC2)Nc2nccc(n2)-c2cccc(c2)COC/1 | ABL1 (Homo sapiens, UniProt P00519, M351T) | binding | 0.1 µM | remaining binding | 19%
COc1ccc(C=O)c(O)c1 | CTSL | enzyme activity, inhibitor | 100 µM | remaining activity | 95.8%
CN(c1nccc(-c2cnn3ncccc23)n1)C1CC1 | COQ8A (Homo sapiens, UniProt Q8NI60) | cell-free assay | 1 µM | remaining signal | 100%
